Measurements from different studies.
Compare with care: the assays were run in different laboratories. “And” joins repeats or separate records; there may be more than shown. Numbers after ± are the reported error.
Uncharacterized hydrolase SAUSA300_2518: Uncharacterized hydrolase SAUSA300_2518 (Staphylococcus aureus, UniProt Q2FDS6)
UniProt Q2FDS6, sequence (whole entry, looked up): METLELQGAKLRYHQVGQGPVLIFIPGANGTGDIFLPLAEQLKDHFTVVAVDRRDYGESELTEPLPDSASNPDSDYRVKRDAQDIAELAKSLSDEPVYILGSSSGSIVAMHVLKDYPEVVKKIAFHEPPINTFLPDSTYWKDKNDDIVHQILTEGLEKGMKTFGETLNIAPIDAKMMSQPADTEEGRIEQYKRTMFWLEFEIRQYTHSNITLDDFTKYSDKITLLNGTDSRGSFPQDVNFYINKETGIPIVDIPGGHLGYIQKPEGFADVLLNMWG
lasR: Transcriptional activator protein LasR (lasR, Pseudomonas aeruginosa, UniProt P25084)
UniProt P25084, sequence (whole entry, looked up): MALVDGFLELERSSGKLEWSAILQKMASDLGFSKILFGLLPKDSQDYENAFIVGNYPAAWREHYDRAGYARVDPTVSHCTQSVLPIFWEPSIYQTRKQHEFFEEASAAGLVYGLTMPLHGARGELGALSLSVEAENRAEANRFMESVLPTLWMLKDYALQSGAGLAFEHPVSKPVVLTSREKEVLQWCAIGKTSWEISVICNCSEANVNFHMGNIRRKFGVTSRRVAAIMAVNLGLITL
Oprm1: Mu-type opioid receptor (Oprm1, Rattus norvegicus, UniProt P33535)
UniProt P33535, sequence (whole entry, looked up): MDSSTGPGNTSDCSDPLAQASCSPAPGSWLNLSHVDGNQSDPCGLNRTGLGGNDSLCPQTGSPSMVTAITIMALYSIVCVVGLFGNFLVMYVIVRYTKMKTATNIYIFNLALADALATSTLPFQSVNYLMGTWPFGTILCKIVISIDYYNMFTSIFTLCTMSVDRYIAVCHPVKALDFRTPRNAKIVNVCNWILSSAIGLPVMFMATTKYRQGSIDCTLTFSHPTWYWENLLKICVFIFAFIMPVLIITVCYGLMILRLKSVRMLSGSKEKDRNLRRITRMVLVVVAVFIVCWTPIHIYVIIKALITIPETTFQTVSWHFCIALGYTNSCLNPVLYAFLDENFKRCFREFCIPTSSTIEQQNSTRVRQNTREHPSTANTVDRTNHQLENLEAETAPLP
sdiA: Regulatory protein SdiA (sdiA, Escherichia coli, UniProt P07026)
UniProt Q9H2X3, sequence (whole entry, unmodified, looked up): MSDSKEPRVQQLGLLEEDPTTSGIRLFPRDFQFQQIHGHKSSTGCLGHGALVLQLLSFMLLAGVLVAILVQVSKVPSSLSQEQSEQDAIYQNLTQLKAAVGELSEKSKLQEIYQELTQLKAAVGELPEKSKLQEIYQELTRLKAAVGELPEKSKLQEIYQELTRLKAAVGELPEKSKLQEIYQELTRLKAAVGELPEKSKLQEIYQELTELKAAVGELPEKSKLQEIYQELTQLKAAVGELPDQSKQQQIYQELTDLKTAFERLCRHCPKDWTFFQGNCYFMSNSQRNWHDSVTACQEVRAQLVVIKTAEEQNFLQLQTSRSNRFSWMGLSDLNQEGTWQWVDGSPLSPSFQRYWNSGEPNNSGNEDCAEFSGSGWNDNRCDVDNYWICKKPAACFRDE
UniProt Q99JW1, sequence (whole entry, looked up): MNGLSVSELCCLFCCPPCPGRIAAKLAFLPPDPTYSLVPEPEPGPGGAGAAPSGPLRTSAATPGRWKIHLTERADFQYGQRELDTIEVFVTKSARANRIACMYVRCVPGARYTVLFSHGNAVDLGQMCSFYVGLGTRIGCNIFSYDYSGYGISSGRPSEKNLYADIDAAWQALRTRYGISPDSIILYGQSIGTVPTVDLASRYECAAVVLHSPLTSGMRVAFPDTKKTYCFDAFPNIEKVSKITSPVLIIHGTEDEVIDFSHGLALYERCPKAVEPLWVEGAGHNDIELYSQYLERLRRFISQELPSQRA
UniProt P07026, sequence (whole entry, looked up): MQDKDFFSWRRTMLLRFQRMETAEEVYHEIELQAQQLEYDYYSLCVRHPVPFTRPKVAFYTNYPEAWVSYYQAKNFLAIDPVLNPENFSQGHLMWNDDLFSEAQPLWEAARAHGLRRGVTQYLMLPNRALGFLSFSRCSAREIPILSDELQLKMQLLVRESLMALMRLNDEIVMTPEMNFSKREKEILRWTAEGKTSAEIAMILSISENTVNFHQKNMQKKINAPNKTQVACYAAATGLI
UniProt Q9UM07, sequence (whole entry, looked up): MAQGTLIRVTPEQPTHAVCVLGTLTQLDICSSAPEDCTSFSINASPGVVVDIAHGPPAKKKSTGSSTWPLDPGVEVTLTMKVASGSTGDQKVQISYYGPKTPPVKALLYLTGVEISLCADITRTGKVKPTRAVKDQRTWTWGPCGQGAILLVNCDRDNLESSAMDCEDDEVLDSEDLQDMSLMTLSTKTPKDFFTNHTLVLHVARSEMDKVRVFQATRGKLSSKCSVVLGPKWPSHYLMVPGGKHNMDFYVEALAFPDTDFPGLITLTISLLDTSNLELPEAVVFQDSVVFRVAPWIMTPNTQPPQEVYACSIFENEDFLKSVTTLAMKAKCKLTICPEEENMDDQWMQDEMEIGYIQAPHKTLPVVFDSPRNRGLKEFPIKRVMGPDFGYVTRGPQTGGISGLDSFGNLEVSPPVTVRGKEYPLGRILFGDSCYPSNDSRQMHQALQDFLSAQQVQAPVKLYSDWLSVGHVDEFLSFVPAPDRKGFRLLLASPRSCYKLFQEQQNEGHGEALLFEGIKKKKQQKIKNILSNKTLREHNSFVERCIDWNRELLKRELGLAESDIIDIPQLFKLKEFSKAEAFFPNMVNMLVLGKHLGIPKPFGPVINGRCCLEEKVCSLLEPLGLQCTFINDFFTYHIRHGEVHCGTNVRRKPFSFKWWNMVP
UniProt Q14145, sequence (whole entry, looked up): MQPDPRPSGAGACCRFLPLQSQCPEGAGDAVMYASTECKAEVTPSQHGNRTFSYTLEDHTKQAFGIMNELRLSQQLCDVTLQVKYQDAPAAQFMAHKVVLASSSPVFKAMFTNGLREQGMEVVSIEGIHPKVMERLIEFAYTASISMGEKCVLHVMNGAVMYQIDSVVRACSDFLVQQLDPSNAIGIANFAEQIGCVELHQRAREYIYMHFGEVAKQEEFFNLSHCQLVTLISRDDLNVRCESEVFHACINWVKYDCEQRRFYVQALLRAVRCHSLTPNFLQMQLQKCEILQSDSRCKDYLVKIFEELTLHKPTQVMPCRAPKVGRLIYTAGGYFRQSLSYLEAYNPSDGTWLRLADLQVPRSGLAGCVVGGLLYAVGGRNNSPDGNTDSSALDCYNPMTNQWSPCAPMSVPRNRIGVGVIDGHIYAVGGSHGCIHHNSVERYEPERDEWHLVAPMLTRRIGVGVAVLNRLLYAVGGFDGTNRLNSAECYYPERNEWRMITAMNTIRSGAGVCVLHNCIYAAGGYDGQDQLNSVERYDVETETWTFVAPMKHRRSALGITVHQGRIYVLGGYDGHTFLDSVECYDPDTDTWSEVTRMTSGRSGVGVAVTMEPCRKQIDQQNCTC
UniProt Q6DWJ6, sequence (whole entry, looked up): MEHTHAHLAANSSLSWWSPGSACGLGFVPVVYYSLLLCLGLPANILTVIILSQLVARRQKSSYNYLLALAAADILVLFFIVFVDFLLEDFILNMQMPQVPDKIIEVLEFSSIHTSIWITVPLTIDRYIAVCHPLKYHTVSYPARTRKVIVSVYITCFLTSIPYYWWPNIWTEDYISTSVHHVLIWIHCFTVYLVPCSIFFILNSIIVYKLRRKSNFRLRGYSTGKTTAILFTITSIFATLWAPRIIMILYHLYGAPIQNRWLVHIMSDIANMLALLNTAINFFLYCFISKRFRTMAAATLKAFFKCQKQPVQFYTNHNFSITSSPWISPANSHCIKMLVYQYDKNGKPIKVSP
UniProt Q9UH17, sequence (whole entry, looked up): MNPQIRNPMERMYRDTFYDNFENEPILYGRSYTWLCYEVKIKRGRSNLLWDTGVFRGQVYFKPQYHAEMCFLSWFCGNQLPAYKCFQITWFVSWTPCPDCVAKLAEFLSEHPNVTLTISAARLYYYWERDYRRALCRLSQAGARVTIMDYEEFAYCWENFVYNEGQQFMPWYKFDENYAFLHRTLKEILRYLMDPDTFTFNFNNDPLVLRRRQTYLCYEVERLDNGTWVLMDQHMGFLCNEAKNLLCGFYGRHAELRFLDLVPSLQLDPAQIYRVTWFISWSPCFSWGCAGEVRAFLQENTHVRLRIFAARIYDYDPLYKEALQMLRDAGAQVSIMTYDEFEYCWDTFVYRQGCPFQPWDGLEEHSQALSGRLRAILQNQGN
UniProt Q3UUQ7, sequence (whole entry, looked up): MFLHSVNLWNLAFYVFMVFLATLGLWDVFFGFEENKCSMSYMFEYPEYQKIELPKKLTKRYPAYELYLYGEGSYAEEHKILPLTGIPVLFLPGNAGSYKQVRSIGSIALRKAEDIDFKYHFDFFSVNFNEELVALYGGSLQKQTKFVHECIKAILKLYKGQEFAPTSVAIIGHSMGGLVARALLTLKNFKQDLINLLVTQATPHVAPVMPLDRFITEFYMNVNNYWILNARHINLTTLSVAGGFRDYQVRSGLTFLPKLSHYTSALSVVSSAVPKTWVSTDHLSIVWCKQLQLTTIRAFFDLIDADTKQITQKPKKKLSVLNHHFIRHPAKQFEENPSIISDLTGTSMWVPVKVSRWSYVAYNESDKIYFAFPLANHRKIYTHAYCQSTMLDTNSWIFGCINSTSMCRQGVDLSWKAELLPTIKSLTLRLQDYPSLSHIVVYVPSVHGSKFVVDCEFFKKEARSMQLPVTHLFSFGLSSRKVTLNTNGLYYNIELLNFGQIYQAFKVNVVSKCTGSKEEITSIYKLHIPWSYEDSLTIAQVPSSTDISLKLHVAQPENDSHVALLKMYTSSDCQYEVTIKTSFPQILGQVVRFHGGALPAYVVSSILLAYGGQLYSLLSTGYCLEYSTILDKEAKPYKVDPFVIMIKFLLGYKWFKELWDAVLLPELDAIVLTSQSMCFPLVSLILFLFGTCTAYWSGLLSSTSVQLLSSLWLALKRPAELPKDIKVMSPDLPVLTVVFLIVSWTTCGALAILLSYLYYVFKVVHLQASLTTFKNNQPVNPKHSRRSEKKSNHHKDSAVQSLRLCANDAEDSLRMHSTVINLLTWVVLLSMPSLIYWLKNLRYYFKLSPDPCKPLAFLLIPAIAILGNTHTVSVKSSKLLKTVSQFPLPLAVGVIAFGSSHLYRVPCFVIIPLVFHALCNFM

SMILES = O=C(CN1CN(c2ccccc2)C2(CCN(C(=O)c3cnc4[nH]ncc4c3)CC2)C1=O)NCC(F)(F)F; target = Serine/threonine-protein kinase LATS2 (LATS2, Homo sapiens, UniProt Q9NRM7); test = inhibitor; conditions = concentration not given; quantity = inhibition; value = < 50%
SMILES = O=C(Nc1ccncc1)c1ccccc1OS(=O)(=O)F; target = Uncharacterized hydrolase SAUSA300_2518; test = enzyme activity, inhibitor, fluorogenic substrate; conditions = 1 µM; quantity = remaining activity; value = 68.9% and 61.7% and 72.8%
SMILES = O=C(O)c1cccc(CP(=O)(O)O)n1; target = Metallo-beta-lactamase type 2 (blaNDM-1, Klebsiella pneumoniae, UniProt C7C422); test = inhibitor; conditions = added: nitrocefin; quantity = dissociation half-life; value = 9.5 ± 0.9 min
SMILES = N[C@H](C(=O)N1CCCC1)C1CCN(c2nccc3c(-c4ncc(Cl)cc4Cl)cccc23)CC1; target = Protein-arginine deiminase type-4 (PADI4, Homo sapiens, UniProt Q9UM07); test = enzyme activity; conditions = 0.2458 µM, high-affinity site, added: Ca2+ 1.5 mM; quantity = kcat; value = 1.57 s⁻¹ and 1.63 s⁻¹
SMILES = CS(C)(=O)=Nc1ccc(-c2ccc(-c3nc4cc(O[C@@H]5CO[C@H]6[C@@H]5OC[C@H]6O)[nH]c4cc3F)cc2)cc1; target = Serine/threonine-protein kinase NLK (NLK, Homo sapiens, UniProt Q9UBE8); test = enzyme activity, inhibitor; conditions = 10 µM; quantity = inhibition; value = 14%
SMILES = CCCCCCCCCC(=O)CC(=O)N[C@H]1CCOC1=O; target = lasR; test = reporter gene, agonist; test system = Pseudomonas aeruginosa PAO-JP2; conditions = 100 µM, plasI-LVAgfp reporter; scale = relative to: OdDHL at same concentration; quantity = agonist activity; value = 88%
SMILES = CCOC(=O)[C@@H]1Cc2c(cc([N+](=O)[O-])cc2[N+](=O)[O-])[C@H](O)[C@]12C(=O)Nc1ccc(Br)cc12; target = Tyrosine-protein kinase ZAP-70 (ZAP70, Homo sapiens, UniProt P43403); test = binding, competition with immobilised ligand; conditions = 0.1 µM; quantity = remaining binding; value = 74%
SMILES = CC(C)[C@@H]1NC(=O)[C@H](CCC(=O)O)NC(=O)CNC(=O)[C@H]([C@@H](C)O)NC(=O)[C@H](CCC(=O)O)NC(=O)[C@H](CCC(=O)O)NC(=O)[C@H](CC(=O)O)NC(=O)[C@H](C(C)C)NC(=O)[C@H]([C@@H](C)O)NC(=O)CNC(=O)[C@H](CC(=O)O)NC(=O)[C@H](CC(N)=O)NC(=O)[C@H](Cc2ccc(O)cc2)NC1=O; target = Kelch-like ECH-associated protein 1 (KEAP1, Homo sapiens, UniProt Q14145); test = Keap1-Nrf2 binding, inhibitor, competitive FP; conditions = 1.562 µM, 30 min, added: Nrf2 peptide probe; scale = lower = stronger inhibition; quantity = fluorescence polarization; value = 0.094 a.u. and 0.0479 a.u.
SMILES = O=C(CCc1ccc(C(F)(F)F)cc1)N[C@H]1CCOC1=O; target = lasR; test = reporter gene, agonist; test system = Escherichia coli JLD271; conditions = 10 µM, pSC11 and pJN105L plasmids; scale = relative to: OdDHL at same concentration; quantity = agonist activity; value = 63%
SMILES = CC[C@H](C)[C@H](NC(=O)[C@H](CCCNC(=N)N)NC(=O)[C@H](CCCNC(=N)N)NC(=O)[C@H](CC(C)C)NC(=O)[C@H](Cc1ccccc1)NC(=O)CNC(=O)CNC(=O)[C@@H](N)Cc1ccc(O)cc1)C(=O)N[C@@H](CCCNC(=N)N)C(=O)N1CCC[C@H]1C(=O)N[C@@H](CCCCN)C(=O)N[C@@H](CC(C)C)C(=O)N[C@@H](CCCCN)C(=O)O; target = Probable G-protein coupled receptor 139 (GPR139, Homo sapiens, UniProt Q6DWJ6); test = Gαi1 activation, agonist, BRET; test system = HEK293T/17; conditions = 40 µM; quantity = Emax; value = 68.2% and 64.9%
SMILES = CCCC[C@H]1CNCCN1C[C@@H]1CCCN1C[C@@H](Cc1ccc2ccccc2c1)N1CCN(CCC23CC4CC(CC(C4)C2)C3)[C@H]([C@H](C)CC)C1; target = Oprm1; test = radioligand binding; test system = rat brain membranes; conditions = 500 nM, pH 7.5, 25 °C, added: 0.87 nM [3H]DAMGO; quantity = remaining binding; value = 106 ± 4.4%
SMILES = COc1ccccc1-c1n[nH]c2nc(N[C@H]3CC[C@H](NS(=O)(=O)CC(C)C)CC3)ncc12; target = cyclin 9 (Leishmania donovani, UniProt A0A2D1QVA3); test = competitor, bead pull-down competition; test system = Leishmania donovani extract; conditions = 2 µM; scale = relative to: vehicle; quantity = remaining binding; value = 7%
SMILES = CC(C)CC(O)(CC(C)C)c1cn(C(=O)N2CCCC2)nn1; target = Alpha/beta hydrolase domain-containing protein 17A (Abhd17a, Mus musculus, UniProt Q99JW1); test = probe labelling, inhibitor; test system = mouse, brain; conditions = i.p., 0.8 mg/kg, 4 h, single peptide; scale = relative to: treated over vehicle mice, lower = stronger inhibition; quantity = activity ratio-of-ratios; value = 1.99 and 1.73 and 1.5 and 1.7
SMILES = CC#CC(=O)NC[C@H](NC(=O)[C@H](CC1CCCCC1)NC(=O)[C@H](CCC(N)=O)NC(C)=O)C(=O)N[C@@H](CC(C)C)C(=O)N[C@@H](Cc1ccccc1)C(=O)O; target = Beta sliding clamp (Escherichia coli, UniProt P0A988); test = binding, isothermal titration calorimetry; conditions = 22 °C; quantity = -TΔS; value = 2.7 kcal/mol
SMILES = CN(C)[C@H]1C[C@@]23CC[C@@]4(O2)C(=CC[C@]2(C)[C@@H](c5ccc6ccncc6c5)CC[C@H]24)C=C3[C@@H](O)[C@@H]1O; target = Mitogen-activated protein kinase 7 (MAPK7, Homo sapiens, UniProt Q13164); test = ATP probe labelling, inhibitor, KiNativ profiling; conditions = 0.1 µM; quantity = inhibition; value = 4.2%
SMILES = O=C1NC(=O)c2c1c1cc(F)c[n+]3c1c1c2c2cc(O)ccc2[n]1[Ru-4]312([N]=C=S)[S+]3CC[S+]1CC[S+]2CC3 (stereo not shown); target = Tyrosine-protein kinase BTK (BTK, Homo sapiens, UniProt Q06187); test = enzyme activity; conditions = 100 nM, human enzyme, added: 10 µM ATP; scale = relative to: untreated; quantity = remaining activity; value = 78%
SMILES = C=CC(=O)Nc1cc(-c2ccc(C(=O)N3CCCC(O)(CC)C3)cc2)ccc1F (stereo not shown); target = DNA dC->dU-editing enzyme APOBEC-3B, C-terminal domain (Homo sapiens, UniProt Q9UH17); test = covalent adduct, intact protein MS; conditions = 5 h, 20-fold excess, 500 µM; quantity = unmodified protein; value = 0% and 20%
SMILES = O=C(CCCOc1ccc(Cl)cc1)N[C@H]1CCOC1=O; target = lasR; test = plasI-LVAgfp reporter, antagonist; scale = relative to: pump-active over pump-mutant; quantity = IC50 ratio; value = 16
SMILES = CCCCCCCCCC(=O)CC(=O)NC1CCSC1=O (stereo not shown); target = sdiA; quantity = Emax; value = 74%
SMILES = N=C(N)NCc1cn([C@@H]2[C@@H](OCCCl)O[C@H](CO)[C@@H](O)[C@@H]2O)nn1; target = C-type lectin domain family 4 member M, extracellular domain (CLEC4M, Homo sapiens, UniProt Q9H2X3); test = isothermal titration calorimetry; quantity = -TΔS; value = 5 kcal/mol and 4.09 kcal/mol and 4.88 kcal/mol
SMILES = O=C(N1CCCCC1)n1ccnn1; target = GPI inositol-deacylase (Pgap1, Mus musculus, UniProt Q3UUQ7); test = probe labelling, inhibitor, competitive ABPP-SILAC, item: Pgap1; test system = mouse T cells; conditions = concentration not given, 4 h, in situ, single peptide; scale = relative to: treated over DMSO, lower = more inhibition; quantity = SILAC ratio; value = 0.37 and 0.29
SMILES = O=C(Cc1cccc(Cl)c1)N[C@H]1CCOC1=O; target = sdiA; quantity = Emax; value = 108%
SMILES = CN(/N=C/c1ccccc1C(=O)O)c1nc(-c2ccccc2Cl)cs1; target = Fibroblast growth factor receptor 2 (FGFR2, Homo sapiens, UniProt P21802); test = enzyme activity, inhibitor; conditions = 1 µM; quantity = inhibition; value = 1.74%
SMILES = CN(C)[C@H](CNC(=O)/C=C/c1cccc2ccccc12)Cc1ccc(O)cc1; target = Mu-type opioid receptor, with Gi1 (OPRM1, Homo sapiens, UniProt P35372); test = receptor activation, agonist; quantity = Emax; value = 72 ± 2%
SMILES = C#CCCCCOc1ccc2c(c1)CCCN2C(=O)CCl; target = Translocator protein (TSPO, Homo sapiens, UniProt P30536); test = mass spectrometry profiling; test system = H460 cell lysate; conditions = 100 µM over 10 µM, UniProt P30536; scale = relative to: high over low concentration; quantity = reactivity ratio; value = 1.43
SMILES = O=C(CCCCCCCCCN=C=S)CC(=O)N[C@H]1CCOC1=O; target = lasR; test = reporter gene, agonist; test system = Escherichia coli JLD271; conditions = 10 µM, pSC11 and pJN105L plasmids; scale = relative to: OdDHL at same concentration; quantity = agonist activity; value = 92%
SMILES = CC(C)[C@H]1NC(=O)C[C@H]2/C=C/CCSSC[C@@H](NC1=O)C(=O)N[C@H](Cc1cccc3ccccc13)C(=O)NCC(=O)O2; target = Phosphorylase b kinase gamma catalytic chain, skeletal muscle/heart isoform (PHKG1, Homo sapiens, UniProt Q16816); test = enzyme activity, inhibitor; conditions = 10 µM; quantity = inhibition; value = 3.3%
SMILES = Cc1cc(O)cc(C)c1C[C@H](N)C(=O)N[C@H](CCCNC(=N)N)C(=O)N[C@@H](Cc1ccccc1)C(=O)N[C@@H](CCCCN)C(=O)NCCNC(=O)[C@@H]1Cc2ccccc2CN1C(=O)[C@@H](N)Cc1c(C)cc(O)cc1C; target = Oprm1; test = binding; test system = rat brain membranes; conditions = added: [3H]DAMGO; scale = relative to: Ki mu over Ki delta; quantity = selectivity ratio; value = 2.55
SMILES = COc1cc2c(cc1S(=O)(=O)F)C(=O)NCCC2; target = Uncharacterized hydrolase SAUSA300_2518; test = enzyme activity, inhibitor, fluorogenic substrate; conditions = 5 µM; quantity = remaining activity; value = 90.9% and 89.8% and 92.6%
SMILES = CC[C@@H](C)[C@@H]1CN([C@H](Cc2ccc3ccccc3c2)CN2CCC[C@H]2CN2CCNC[C@@H]2CO)CCN1CCC12CC3CC(CC(C3)C1)C2; target = Oprm1; test = radioligand binding; test system = rat brain membranes; conditions = 500 nM, pH 7.5, 25 °C, added: 0.87 nM [3H]DAMGO; quantity = remaining binding; value = 108 ± 7.75%
SMILES = CSCC[C@@H]1NC(=O)[C@H](Cc2ccccc2)NC(=O)[C@@H](NC(=O)[C@H](C)N)CNC(=O)[C@H](C(C)C)NC(=O)[C@H](Cc2ccccc2)NC1=O; target = Histidine kinase AgrC (Listeria monocytogenes, UniProt A8E0G3); test = reporter gene, agonist, agr GFP reporter; scale = relative to: native 6-mer AIP; quantity = EC50 ratio; value = 10 fold

Repeated from above:
SMILES = COc1cc2c(cc1S(=O)(=O)F)C(=O)NCCC2; target = Uncharacterized hydrolase SAUSA300_2518; test = enzyme activity, inhibitor, fluorogenic substrate; conditions = 5 µM; quantity = remaining activity; value = 90.9% and 89.8% and 92.6%
SMILES = CC[C@@H](C)[C@@H]1CN([C@H](Cc2ccc3ccccc3c2)CN2CCC[C@H]2CN2CCNC[C@@H]2CO)CCN1CCC12CC3CC(CC(C3)C1)C2; target = Oprm1; test = radioligand binding; test system = rat brain membranes; conditions = 500 nM, pH 7.5, 25 °C, added: 0.87 nM [3H]DAMGO; quantity = remaining binding; value = 108 ± 7.75%
